# Results pooled from the literature.
# Compare with care: the assays were run in different laboratories. ± gives the spread as reported.
# rep main protease: Replicase polyprotein 1ab, main protease (rep, Severe acute respiratory syndrome coronavirus 2, UniProt P0DTD1)
Molecule,tested on,test,test system,conditions,measurement,result
CNC(=O)[C@@H](NC(=O)[C@H](CC(C)C)[C@H](O)C(=O)NO)C(C)(C)C,,,"PB population, mouse","intravenous, 60 µg/mouse, 24 h, preincubated with venom, added: Daboia russelii venom 2.5 x LD50",survival,0%
CC[C@H](C)[C@H](NC(=O)[C@H](CC(C)C)NC(=O)[C@H](Cc1c[nH]c2ccccc12)NC(=O)[C@H](CCC(N)=O)NC(=O)[C@@H](NC(=O)[C@H](Cc1ccccc1)NC(=O)[C@H](C)NC(=O)[C@H](CCCCNC(=O)COCCOCCNC(=O)COCCOCCNC(=O)CC[C@H](NC(=O)CCCCCCCCCCCCCCCCCCC(=O)O)C(=O)O)NC(=O)[C@H](CCC(N)=O)NC(=O)[C@H](C)NC(=O)[C@@H](NC(=O)[C@H](CCCCN)NC(=O)[C@H](CC(=O)O)NC(=O)[C@H](CC(C)C)NC(=O)C(C)(C)NC(=O)[C@@H](NC(=O)[C@H](CO)NC(=O)[C@H](Cc1ccc(O)cc1)NC(=O)[C@H](CC(=O)O)NC(=O)[C@H](CO)NC(=O)[C@@H](NC(=O)[C@H](Cc1ccccc1)NC(=O)[C@@H](NC(=O)CNC(=O)[C@H](CCC(=O)O)NC(=O)C(C)(C)NC(=O)[C@@H](N)Cc1ccc(O)cc1)[C@@H](C)O)[C@@H](C)O)[C@@H](C)CC)[C@@H](C)CC)C(C)C)C(=O)N[C@@H](C)C(=O)NCC(=O)NCC(=O)N1CCC[C@H]1C(=O)N[C@@H](CO)C(=O)N[C@@H](CO)C(=O)NCC(=O)N[C@@H](C)C(=O)N1CCC[C@H]1C(=O)N1CCC[C@H]1C(=O)N1CCC[C@H]1C(=O)N[C@@H](CO)C(N)=O,,,healthy human,"0.25 mg, single ascending dose",severe hypoglycaemia,0%
CC(C)(C#Cc1ccc(-c2ccc(Cl)c3c(NS(C)(=O)=O)nn(CC(F)(F)F)c23)c([C@H](CC2CC2)NC(=O)Cn2nc(C(F)(F)F)c3c2C(F)(F)[C@@H]2C[C@H]32)n1)S(C)(=O)=O,HIV-1,viral replication,,,EC50,15.7 ± 12 nM
Nc1c(C(=O)NCc2ccc(F)cc2F)c(=O)n(O)c2ncc(CCCO)cc12,HIV-1,"viral replication, single-round infectivity",integrase G140S/Q148H,,EC50,13.4 ± 6.5 nM
CC(C)(C#Cc1ccc(-c2ccc(Cl)c3c(NS(C)(=O)=O)nn(CC(F)(F)F)c23)c([C@@H](CC2CCCCC2)NC(=O)Cn2nc(C(F)(F)F)c3c2C(F)(F)[C@H]2C[C@@H]32)n1)S(C)(=O)=O,HIV-1,viral replication,,,EC50,> 40000 nM
Nc1ncnc2c([C@@H]3N[C@H](CO)[C@@H](O)[C@H]3O)c[nH]c12,Marburg virus,viral replication,"HeLa, Musoke",100 µM,inhibition,98%
Cn1c(Cn2ccc(C(F)(F)F)c(Oc3cc(Cl)cc(C#N)c3)c2=O)n[nH]c1=O,HIV-1,"viral replication, single-round infection",RT mutant Y181I,,EC50,0.6 ± 0.3 nM
CC(C)C[C@H](NC(=O)[C@H](Cc1ccccc1)NC(=O)c1cnccn1)B(O)O,rep main protease,"reporter gene (Gaussia luciferase), inhibitor",,20 µM,inhibition,-4.59%
Cn1cnc(Cn2c(=O)[nH]/c(=N\c3cc4cn(C)nc4cc3Cl)n(Cc3cc(F)c(F)cc3F)c2=O)n1,,,"human, mild renal impairment","oral, 375 mg","dry mouth TEAE, Severe severity",0%
Cc1cc(/C=C/C#N)cc(C)c1Nc1nc(Nc2ccc3cc(C#N)ccc3c2)ncc1N,HIV-1,"viral replication, single-round infection",RT mutant K101P,,EC50,98.7 ± 14 nM
NC(=O)CCNC(=O)c1ccccc1S,HIV-1,viral replication,"human PBMC, subtype E 93TH073, dual-tropic clinical isolate",,EC50,2840 ± 2500 nM
C[C@@H]1O[C@@H](O[C@H]2[C@H](O[C@H]3CC[C@@]4(C)[C@@H](CC[C@]5(C)[C@@H]4CC=C4[C@@H]6CC(C)(C)CC[C@]6(C(=O)O[C@@H]6O[C@H](CO[C@@H]7O[C@H](CO)[C@@H](O[C@@H]8O[C@@H](C)[C@H](O)[C@@H](O)[C@H]8O)[C@H](O)[C@H]7O)[C@@H](O)[C@H](O)[C@H]6O)CC[C@]45C)[C@]3(C)CO)OC[C@H](O)[C@@H]2O)[C@H](O)[C@H](O)[C@H]1O,"Spike glycoprotein (Severe acute respiratory syndrome coronavirus 2, UniProt P0DTC2)","binding, biolayer interferometry",,,Kd,54.5 µM
O=C1Nc2ccc(Cl)cc2[C@@](C#CC2CC2)(C(F)(F)F)O1,HIV-1,"viral replication, single-round infection",RT mutant V106A,,EC50,1.2 ± 0.2 nM
delavirdine,HIV-1,viral replication,"MT-2, A17 (Y181C/K103N), NNRTI-resistant",,EC50,> 3700 nM
CS(=O)(=O)n1cc2c(n1)CN([C@H]1CO[C@H](c3cc(F)ccc3F)[C@@H](N)C1)C2,rep main protease,"reporter gene (Gaussia luciferase), inhibitor",,20 µM,inhibition,-0.317%
CC(C)(C#Cc1ccc(-c2ccc(Cl)c3c(NS(C)(=O)=O)nn(CC(F)(F)F)c23)c([C@@H](CC2CCCC2)NC(=O)Cn2nc(C(F)(F)F)c3c2C(F)(F)[C@H]2C[C@@H]32)n1)S(C)(=O)=O,HIV-1,viral replication,,,EC50,4000 ± 90 nM
Cc1cn([C@H]2C[C@H](N=[N+]=[N-])[C@@H](CO)O2)c(=O)[nH]c1=O,HIV-1,viral replication,"human PBMC, subtype B 92BR014, dual-tropic clinical isolate",,EC50,2.49 ± 0.22 nM
Cc1cc(/C=C/C#N)cc(C)c1-n1cnc2cnc(Nc3ccc4cc(C#N)ccc4c3)nc21,HIV-1,"viral replication, single-round infection",RT mutant V106A/F227L/L234I,,EC50,13.1 ± 0.7 nM
O=C1Nc2ccc(Cl)cc2[C@@](C#CC2CC2)(C(F)(F)F)O1,HIV-1,viral replication,"MT4, RES056 K103N+Y181C",,EC50,186 ± 22.4 nM
Nc1c(C(=O)NCc2ccc(F)cc2F)c(=O)n(O)c2ncc(CCCCCO)cc12,HIV-1,"viral replication, single-round infectivity",integrase G140S/Q148H,,EC50,~7 nM
CCCC(=O)OCSc1ccccc1C(=O)NCCC(N)=O,HIV-1,viral replication,"human PBMC, subtype D 92UG024, CXCR4-tropic clinical isolate",,EC50,1320 ± 830 nM
C#Cc1cncc(C(=O)N2CCC3(CC2)CN(C(=O)[C@H]2CCC[C@@H]2O)Cc2ccccc2O3)c1,rep main protease,"enzyme activity, inhibitor",,"5 µM, run 2",inhibition,10.8%
Nc1c(C(=O)NCc2ccc(F)cc2F)c(=O)n(O)c2ncc(CCCCCCCCO)cc12,HIV-1,"viral replication, single-round infectivity",integrase G140S/Q148H,,EC50,7.7 ± 1.9 nM
Cc1cc(/C=C/C#N)cc(C)c1Nc1nc(Nc2ccc(/C=C/C#N)cc2)ncc1N,HIV-1,"viral replication, single-round infection",RT mutant G190S,,EC50,0.2 ± 0.06 nM
